Results gathered from unrelated publications.
Every numbered part comes from another study and shows a few of its results, in no order.

Sample 1
Target: Sal-like protein 4, full length isoform A (SALL4, Homo sapiens, UniProt Q9UJQ4, residues 1-1053)
Sequence of UniProt Q9UJQ4 (whole entry, looked up): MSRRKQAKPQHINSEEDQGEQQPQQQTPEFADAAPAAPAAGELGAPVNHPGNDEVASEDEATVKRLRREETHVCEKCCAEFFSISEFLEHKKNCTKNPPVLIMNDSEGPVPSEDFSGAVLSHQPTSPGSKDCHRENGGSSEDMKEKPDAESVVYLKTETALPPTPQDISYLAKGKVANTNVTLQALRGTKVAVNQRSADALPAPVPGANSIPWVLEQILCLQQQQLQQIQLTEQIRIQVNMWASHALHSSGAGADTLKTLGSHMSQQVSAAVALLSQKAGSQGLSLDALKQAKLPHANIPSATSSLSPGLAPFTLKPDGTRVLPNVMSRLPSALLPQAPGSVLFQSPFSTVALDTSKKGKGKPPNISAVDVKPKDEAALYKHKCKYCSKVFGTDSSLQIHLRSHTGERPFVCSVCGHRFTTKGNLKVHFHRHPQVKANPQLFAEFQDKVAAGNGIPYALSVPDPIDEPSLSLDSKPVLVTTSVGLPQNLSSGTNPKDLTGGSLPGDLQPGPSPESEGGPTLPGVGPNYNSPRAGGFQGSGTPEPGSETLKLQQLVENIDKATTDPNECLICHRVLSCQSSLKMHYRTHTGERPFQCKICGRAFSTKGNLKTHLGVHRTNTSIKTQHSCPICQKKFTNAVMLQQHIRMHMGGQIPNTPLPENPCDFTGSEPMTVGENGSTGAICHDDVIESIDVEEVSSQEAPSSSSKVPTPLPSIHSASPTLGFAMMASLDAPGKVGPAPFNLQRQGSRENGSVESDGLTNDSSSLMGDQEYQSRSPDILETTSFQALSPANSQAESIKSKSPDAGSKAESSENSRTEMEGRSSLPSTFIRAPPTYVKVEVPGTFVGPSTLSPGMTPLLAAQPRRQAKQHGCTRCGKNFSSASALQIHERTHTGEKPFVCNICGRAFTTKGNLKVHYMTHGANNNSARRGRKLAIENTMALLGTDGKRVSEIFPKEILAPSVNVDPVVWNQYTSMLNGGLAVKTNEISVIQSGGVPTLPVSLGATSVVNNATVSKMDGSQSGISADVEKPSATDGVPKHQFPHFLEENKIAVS
Technique: universal PBM
Molecule type: double-stranded DNA, one strand shown
Matrix: in vitro
Tested at: 600 nM
Notes: 8-mer, flanks averaged, mean of replicates
Direction: higher = stronger binding
Oligonucleotide | E-score
GATAATCA | 0.19
AGCCGTAC | -0.115
GGCGAGCA | -0.295
CACTATCG | -0.0152
CACGAATA | 0.223
GAGAGCCC | -0.341

Sample 2
Target: Histone acetyltransferase KAT6A, winged helix 1, GST fusion (KAT6A, Homo sapiens, UniProt Q92794, residues 1-85)
Technique: protein binding microarray
Molecule type: double-stranded DNA, one strand shown
Matrix: in vitro
Tested at: not given
Notes: 8-mer, flanks averaged, mean of 2 arrays, mostly near background
Reference: not given
Direction: higher = stronger binding
Construct (chain): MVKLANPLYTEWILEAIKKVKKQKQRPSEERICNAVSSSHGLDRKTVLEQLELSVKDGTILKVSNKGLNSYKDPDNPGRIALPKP
Oligonucleotide | E-score
GCGCCTAC | 0.264
ACCGTATG | 0.126
ATCCAGAT | -0.136
ACTTTAGA | -0.202

Sample 3
Target: RNA binding protein fox-1 homolog 2, RRM domain, GST-SBP tag (RBFOX2, Homo sapiens, UniProt O43251-10, residues 100-194)
Technique: RNA Bind-n-Seq
Molecule type: RNA
Matrix: in vitro
Tested at: 365 nM
Notes: natural RNA segment, single round, ends assumed
Reference: no-protein control
Direction: higher = stronger binding
Constant ends, left off below: GGGAGUUCUACAGUCCGACGAUC … UGGAAUUCUCGGGUGCCAA
Construct (chain): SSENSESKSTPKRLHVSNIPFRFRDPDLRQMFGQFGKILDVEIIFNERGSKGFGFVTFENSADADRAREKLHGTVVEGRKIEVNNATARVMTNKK
Oligonucleotide | RBNS enrichment (R)
UGAGGAGUAUCUCUGCUCGGAAGCAUCUGUGGUGGUGUGAUGUGUUGUUCUGUGUACUGUAUGUGACACAAGCCUACAGGAUUUGCACUAAGAAAAGCUUGGUAGGAGCU | 0.75
CCACGUUGCUGUGUCGUGAGGUGCAGCGGGUCACCCUGUGGCCCGUCCUGUGACCCAUAUUUAGCCGUGUUUGGGACUCCGUGUCUUCAAUGGUUUGUUAGUUGCCAUUA | 0.32
CCCAUGGGUCCCUUACUAGAGAGGUUGAGUGAAUUUGCCUUCAGUUAACAUGGGACCUUCUGUUUAGCUUCCUCUUGCUUCCCAAAGAUUUUAAGCAUUUUGUAAAUGUA | 0.333
UUUAUUUUAUGUGUAUGACUGUUUGCCUACGUGUAUAUAUGUGCACCACCUGUGUGCCUGGUGUCUGUAGAAGCCAGCAGGAGGCUGUUAGAUCUCCUGGGCCGGGCGUU | 0.613
CUCUCCUAGAUUCAUUUUCAUUAUUUAUGCUAGGAUUUUCUUAUGGUUGACAUUUGAUGACAGGAAGCAAUCAUGACUCUUCAAGUGAGCUCACAGAAACCUUUCAUGUU | 0.456

Single results of other studies
Substance | target | assay | system | conditions | scale | quantity | result
PhoQ, residues 284 288 289 292 302 303 TLSLKA | PhoP, residues 12 14 15 18 19 TTLRV (Escherichia coli, UniProt P23836) | Sort-seq, item: YFP reporter | E. coli | PhoQ-PhoP variant library, added: 10 µM Mg2+ | reference: high Mg2+ state, higher = stronger signaling | fold induction | 9.79

Repeated from above (sample 2):
Oligonucleotide | E-score
ATCCAGAT | -0.136
